Experimental data gathered from unrelated publications.
Numbers after ± are the reported error.

SMILES	organism	test	system	setting	scale	endpoint	result
COc1ccc(CNc2nc(N3CCC[C@H]3CO)ncc2C(=O)NN)cc1Cl	Salmonella typhimurium	–	TA100	1000 µg/plate, 48 h, with: rat liver S9	–	revertant count	159 ± 32
CN(C)CCNC(=O)/C=C/[C@H](Cc1ccccc1)Nc1ccnc2cc(Cl)ccc12	Plasmodium falciparum	–	Vero, 3D7 chloroquine-sensitive	–	reference: Vero CC50 over parasite IC50	selectivity index	1620
NC(=O)N1c2ccccc2C=Cc2ccccc21	Danio rerio	–	zebrafish, male	waterborne exposure, 100 µg/L nominal, 7 d	–	plasma concentration	2950 ng/mL
CC(C)N1CCCCC1C(=O)NC(Cc1ccc(-c2ccccc2)cc1)B(O)O (centres unmarked)	Plasmodium falciparum	–	3D7, NODscidIL2Rγnull mouse, whole blood	oral, dose not given, first day of treatment	–	time above in vitro LD50	≥ 6 h
COc1ccc(CNc2nc(N3CCC[C@H]3CO)ncc2C(=O)NNC(=O)c2cnc(N3CCC[C@H]3CO)nc2NCc2ccc(OC)c(Cl)c2)cc1Cl	Salmonella typhimurium	–	TA98	62.5 µg/plate, 48 h	–	revertant count	31 ± 6
C[C@H](NC(=O)[C@H](Cc1c[nH]cn1)NC(=O)[C@H](CO)NC(=O)[C@@H](N)CC(=O)O)C(=O)N[C@@H](CCCNC(=N)N)C(=O)N[C@@H](CCCNC(=N)N)C(=O)N[C@@H](Cc1c[nH]cn1)C(=O)N[C@@H](Cc1c[nH]cn1)C(=O)NCC(=O)N[C@@H](Cc1ccc(O)cc1)C(=O)N[C@@H](CCCCN)C(=O)N[C@@H](CCCNC(=N)N)C(=O)N[C@@H](CCCCN)C(=O)N[C@@H](Cc1ccccc1)C(=O)N[C@@H](Cc1c[nH]cn1)C(=O)N[C@@H](CCC(=O)O)C(=O)N[C@@H](CCCCN)C(=O)N[C@@H](Cc1c[nH]cn1)C(=O)N[C@@H](Cc1c[nH]cn1)C(=O)N[C@@H](CO)C(=O)N[C@@H](Cc1c[nH]cn1)C(=O)N[C@@H](CCCNC(=N)N)C(=O)NCC(=O)N[C@@H](Cc1ccc(O)cc1)C(=O)O	Candida albicans	–	ATCC 90028	2 h, 37 °C	reference: parent peptide	intact peptide remaining	no effect
CC1CCC(C(C)(C)C(=O)Nc2ccc(Oc3ccccc3)cc2)CC1 (centres unmarked)	Plasmodium falciparum	–	3D7	–	reference: CC50 Ba/F3 over IC50	selectivity index	> 260
CCCCNCC(O)Cn1c2ccc(Cl)cc2c2cc(Cl)ccc21 (centres unmarked)	Plasmodium falciparum	–	WI-38, Dd2	–	reference: CC50 WI-38 over IC50 P. falciparum	selectivity index	87
CCC(=O)N(C)c1ccc(Cl)c(Cl)c1	Salmonella typhimurium	Ames test	TA100	0.05 mg/plate, with rat liver S9	–	revertants	89 ± 22.9 revertants/plate
CC1CC2OCOC2C(OC2CCC3(C=O)C4CCC5(C)C(C6=CC(=O)OC6)CCC5(O)C4CCC3(O)C2)O1 (centres unmarked)	transmissible gastroenteritis virus	–	ST, TGEV-infected	6 h post infection	–	CC50	> 10 µM
CC(=NNC(=N)N)c1nnn(-c2ccc(C#CC3(O)CCCCC3)cc2)c1C	Candida albicans	–	Caco-2, SC5314 wild type	–	reference: Caco-2 IC50 over MIC	selectivity index	5.5
